Measurements pooled from the literature.
Lines come from different studies, so protocols differ.
TDP1: Tyrosyl-DNA phosphodiesterase 1 (TDP1, Homo sapiens, UniProt Q9NUW8)
Chain of UniProt Q9NUW8 (whole entry, looked up): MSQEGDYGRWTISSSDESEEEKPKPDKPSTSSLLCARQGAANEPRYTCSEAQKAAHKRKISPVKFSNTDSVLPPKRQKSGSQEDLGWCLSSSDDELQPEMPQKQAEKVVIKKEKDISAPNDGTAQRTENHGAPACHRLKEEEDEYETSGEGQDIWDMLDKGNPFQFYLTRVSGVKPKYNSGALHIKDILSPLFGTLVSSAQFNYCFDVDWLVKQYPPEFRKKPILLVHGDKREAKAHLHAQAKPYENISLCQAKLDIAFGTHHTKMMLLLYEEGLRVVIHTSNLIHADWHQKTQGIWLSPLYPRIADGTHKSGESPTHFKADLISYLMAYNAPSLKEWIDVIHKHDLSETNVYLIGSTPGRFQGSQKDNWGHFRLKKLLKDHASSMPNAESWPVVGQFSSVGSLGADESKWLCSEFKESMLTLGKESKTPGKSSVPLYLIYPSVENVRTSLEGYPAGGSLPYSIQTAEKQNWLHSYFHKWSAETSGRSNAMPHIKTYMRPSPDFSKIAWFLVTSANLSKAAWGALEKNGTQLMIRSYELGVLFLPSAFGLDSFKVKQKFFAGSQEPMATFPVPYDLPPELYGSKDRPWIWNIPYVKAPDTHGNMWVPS

The CC50 of O=C(C=Cc1ccccc1)c1cc(Br)ccc(=O)c1O is reported as 1.6 µM (HepDES19; cell growth or viability, MTS; 72 h).
With COC1C=COC2(C)Oc3c(C)c(O)c4c(c3C2=O)C2=NC3(CCN(CC(C)C)CC3)NC2=C(NC(=O)C(C)=CC=CC(C)C(O)C(C)C(O)C(C)C(OC(=O)Nc2cnccn2)C1C)C4=O (stereo not drawn) the intracellular/extracellular ratio was 31 (THP-1 derived macrophages; relative to: intracellular over extracellular).
Cc1cc(O)c(=O)c(O)cc1-c1ccc([N+](=O)[O-])cc1 has a CC50 of 79 µM (HepDES19; cell growth or viability, MTS; 72 h).
With CN1CCCNC(=O)c2cccc(c2)C(=O)NCCCN(C)CCCNc2cccc3c2C(=O)c2cccc(c2C3=O)NCCC1 the viability was 27.3% (Ca9-22; cell growth or viability, CCK-8; 1.5 µM, 48 h).
For N#Cc1c(-c2ccco2)cc(-c2cccs2)[nH]c1=O, the viability was < 25% (human neural progenitor cells; 20 µM, 72 h).
COc1ccc2ncc(F)c(CC[C@H]3OC[C@H](NCc4ccc(Cl)c(Cl)c4)CO3)c2n1 gave an IC50 of 9.35 µg/mL (HepG2; cytotoxicity; 24 h).
Cc1cc(O)c(=O)c(O)cc1-c1cccc2ccccc12 gave a CC50 of 28.9 µM (HepDES19; cell growth or viability, MTS; 72 h).
O=CCNCCOn1c(=O)n(OCCNCCO)c(=O)n(OCCNCCOn2c(=O)n(OCCNCCO)c(=O)n(OCCNCCO)c2=O)c1=O has a viability of 15.1% (HUVEC; cell growth or viability, MTT; 200 µg/mL, 48 h).
For N=C(N)NCCC[C@@H]1NC(=O)[C@H](CCCNC(=N)N)NC(=O)[C@H](CCCNC(=N)N)NC(=O)[C@H](Cc2ccc3ccccc3c2)NC(=O)[C@H](Cc2ccc3ccccc3c2)NC(=O)[C@H](Cc2c[nH]c3ccccc23)NC(=O)[C@H](CCCNC(=N)N)NC1=O, the HC50 was 150 µg/mL (human red blood cells; haemolysis; 2 h, 37 °C).
The CC50 of O=c1c(O)ccc(-c2ccco2)cc1O is reported as 25.5 µM (HepDES19; cell growth or viability, MTS; 72 h).
For COC1C=COC2(C)Oc3c(C)c(O)c4c(c3C2=O)C2=NC3(CCN(CC(C)C)CC3)NC2=C(NC(=O)C(C)=CC=CC(C)C(O)C(C)C(O)C(C)C(OC(=O)c2cccnc2)C1C)C4=O (stereo not drawn), the intracellular/extracellular ratio was 1.6 (THP-1 derived macrophages; 30 min).
The IC50 of CCCCCC(=O)Oc1c(C)c(OC)c2c(/C=C/c3ccccc3)c(CCCC)c(=O)oc2c1C is reported as > 50 µM (normal human liver cell line; cytotoxicity, SRB; 72 h).
The IC50 of C[N+](C)(CF)CCO is reported as > 150 µM (HepG2; cell viability; glucose medium; 24 h, mitochondrial toxicity).
N=C(N)NCCC[C@@H]1NC(=O)[C@H](CCCNC(=N)N)NC(=O)[C@@H](CCCNC(=N)N)NC(=O)[C@@H](CCCNC(=N)N)NC(=O)[C@@H](C(c2ccccc2)c2ccccc2)NC(=O)[C@H](Cc2c[nH]c3ccccc23)NC(=O)[C@@H](C(c2ccccc2)c2ccccc2)NC1=O gave an HC50 of 310 µg/mL (human red blood cells; haemolysis; 2 h, 37 °C).
The inhibition of COc1ccc(-c2ccc(C=NOCc3ccc4nc(-c5ccccc5)c(Nc5ccc(C(=O)O)cc5)n4c3)s2)cc1 (mixture of isomers) is reported as 42.6% (TDP1; enzyme activity, inhibitor; 100 µM, unpurified compound).
With N=C(N)NCCC[C@@H]1NC(=O)[C@H](CCCNC(=N)N)NC(=O)[C@@H](CCCNC(=N)N)NC(=O)[C@@H](CCCNC(=N)N)NC(=O)[C@@H](Cc2ccc3ccccc3c2)NC(=O)[C@H](Cc2c[nH]c3ccccc23)NC(=O)[C@@H](Cc2ccc3ccccc3c2)NC1=O the HC50 was 220 µg/mL (human red blood cells; haemolysis; 2 h, 37 °C).
O=C1NC2(CC2)COc2ncc(F)cc2[C@H]2COCCN2c2ccn3ncc1c3n2 gave a structural aberrations of 0% (CHL; 300 µg/mL, 4 h, with rat liver S9).
With O=C(O)c1ccc(Nc2c(-c3ccccc3)nc3ccc(CON=Cc4cc(Br)c5c(c4)CCO5)cn23)cc1 the inhibition was 45.6% (TDP1; enzyme activity, inhibitor; 100 µM, unpurified compound).
With CCCC(=O)Oc1c(C)c(OC)c2c(c1C)OC(=O)[C@@H](CC)[C@]2(O)/C=C/c1ccccc1 (racemic) the IC50 was > 50 µM (normal human liver cell line; cytotoxicity, SRB; 72 h).
The CC50 of O=c1c(O)c(-c2ccc(O)c(O)c2)oc2cc(O)cc(O)c12 is reported as > 256 µg/mL (MDBK; cell growth or viability, MTT; 72 h).
With Cc1cc(O)c(=O)c(O)cc1-c1ccc(Cl)cc1 the CC50 was > 100 µM (HepDES19; cell growth or viability, MTS; 72 h).

Excerpt of the above:
N=C(N)NCCC[C@@H]1NC(=O)[C@H](CCCNC(=N)N)NC(=O)[C@@H](CCCNC(=N)N)NC(=O)[C@@H](CCCNC(=N)N)NC(=O)[C@@H](C(c2ccccc2)c2ccccc2)NC(=O)[C@H](Cc2c[nH]c3ccccc23)NC(=O)[C@@H](C(c2ccccc2)c2ccccc2)NC1=O gave an HC50 of 310 µg/mL (human red blood cells; haemolysis; 2 h, 37 °C).
